Published values gathered from unrelated publications.
Each line is one published result; not all experiments were run side by side. Values joined by “and” are separate records of one study, mostly repeats; a detail may differ. ± marks the error that the study gave.

CSCC[C@H](N)C(=O)N[C@@H](C)C(=O)N[C@@H](CCCNC(=N)N)C(=O)N[C@@H](CCCNC(=N)N)C(=O)N[C@@H](CC(=O)O)C(=O)N[C@@H](CCCCN)C(=O)N[C@H](C(=O)N[C@@H](CC(=O)O)C(=O)N[C@@H](Cc1ccccc1)C(=O)N[C@@H](C)C(=O)N[C@@H](CCCNC(=N)N)C(=O)N[C@@H](CCCNC(=N)N)C(=O)N[C@@H](CCCNC(=N)N)C(=O)N[C@@H](CCCNC(=N)N)C(=O)NCCCCCC(=O)NCCCCC(NC(=O)CCCCCNC(=O)[C@H](CCCNC(=N)N)NC(=O)[C@H](CCCNC(=N)N)NC(=O)[C@H](CCCNC(=N)N)NC(=O)[C@H](CCCNC(=N)N)NC(=O)[C@H](C)NC(=O)[C@H](Cc1ccccc1)NC(=O)[C@H](CC(=O)O)NC(=O)[C@@H](NC(=O)[C@H](CCCCN)NC(=O)[C@H](CC(=O)O)NC(=O)[C@H](CCCNC(=N)N)NC(=O)[C@H](CCCNC(=N)N)NC(=O)[C@H](C)NC(=O)[C@@H](N)CCSC)[C@@H](C)O)C(=O)NCCCCC(NC(=O)C(CCCCNC(=O)CCCCCNC(=O)[C@H](CCCNC(=N)N)NC(=O)[C@H](CCCNC(=N)N)NC(=O)[C@H](CCCNC(=N)N)NC(=O)[C@H](CCCNC(=N)N)NC(=O)[C@H](C)NC(=O)[C@H](Cc1ccccc1)NC(=O)[C@H](CC(=O)O)NC(=O)[C@@H](NC(=O)[C@H](CCCCN)NC(=O)[C@H](CC(=O)O)NC(=O)[C@H](CCCNC(=N)N)NC(=O)[C@H](CCCNC(=N)N)NC(=O)[C@H](C)NC(=O)[C@@H](N)CCSC)[C@@H](C)O)NC(=O)CCCCCNC(=O)[C@H](CCCNC(=N)N)NC(=O)[C@H](CCCNC(=N)N)NC(=O)[C@H](CCCNC(=N)N)NC(=O)[C@H](CCCNC(=N)N)NC(=O)[C@H](C)NC(=O)[C@H](Cc1ccccc1)NC(=O)[C@H](CC(=O)O)NC(=O)[C@@H](NC(=O)[C@H](CCCCN)NC(=O)[C@H](CC(=O)O)NC(=O)[C@H](CCCNC(=N)N)NC(=O)[C@H](CCCNC(=N)N)NC(=O)[C@H](C)NC(=O)[C@@H](N)CCSC)[C@@H](C)O)C(N)=O)[C@@H](C)O (some centres unmarked) — tissue distribution (C57BL/6 mouse female, ovary; dose not given, 6 h; relative to: total): 0.33% and 0.22% and 0.36%
C[C@@H](Oc1ccc2c(c1)[C@H]1CCN[C@@]1(C)CO2)c1ccccc1 — permeability (Pe) (lipid PAMPA; PBS; 10 µM, 16 h, pH 7.4, 25 °C): 2 ×10⁻⁶ cm/s
Cc1ccccc1-c1ccc(-c2nc(-c3ccc(CN(C)CCCC(=O)O)c([18F])c3)no2)cc1C(F)(F)F — tracer uptake (rat, bone; 5 min): 0.3 %ID/g
CC(C)N1CCCCC1C(=O)NC(Cc1ccc(-c2ccccc2)cc1)B(O)O (centres unmarked) — AUC(0-t) (male Sprague-Dawley rats, plasma; intravenous, 1 mg/kg, 24 h, citrate ester): 2.07 µM·h
CC[C@H](C)[C@H](NC(=O)[C@@H](NC(=O)[C@H](C)NC(=O)[C@H](C)NC(=O)[C@H](CCC(N)=O)NC(=O)CNC(=O)[C@@H](NC(=O)[C@@H](NC(=O)[C@H](C)NC(=O)[C@@H](NC(=O)[C@H](C)NC(=O)[C@@H]1CCCN1C(=O)CNC(=O)[C@H](C)NC(=O)[C@H](CCCCN)NC(=O)[C@@H](NC(=O)[C@@H](NC(=O)CNC(=O)[C@H](CC(=O)O)NC(=O)[C@H](CCCNC(=N)N)NC(=O)[C@@H](NC(=O)[C@H](CC(N)=O)NC(=O)[C@H](CCC(N)=O)NC(=O)CNC(=O)[C@@H](NC(=O)[C@H](CCCCN)NC(=O)[C@H](CCC(=O)O)NC(=O)[C@@H](NC(=O)[C@H](CCCCN)NC(=O)[C@H](CCCCN)NC(=O)[C@H](Cc1ccccc1)NC(=O)[C@@H](NC(=O)[C@H](CCCCN)NC(=O)[C@H](Cc1c[nH]c2ccccc12)NC(=O)[C@@H](N)CCCNC(=N)N)[C@@H](C)CC)[C@@H](C)CC)C(C)C)[C@@H](C)CC)[C@@H](C)CC)C(C)C)C(C)C)C(C)C)C(C)C)[C@@H](C)O)C(N)=O — helical content (CD spectroscopy; 50% TFE in water; room temperature): 30.4%
CN1Cc2cc(Cl)ccc2-n2c(nnc2C2CCN(c3cccc([18F])n3)CC2)C1 — total volume of distribution (PET two-tissue compartment model; rhesus monkey, occipital cortex; intravenous, dose not given, 90 min scan, baseline scan): 1.05 ± 0.42 mL/cm3
CC(C)=CCC/C(C)=C/CCn1cc(CC(C)(P(=O)(O)O)P(=O)(O)O)nn1 — biliary excretion (mouse CD-1; intravenous, 0.3 mg/kg, 2 h; relative to: dose): 0.51%
O=C1NC2(CC2)COc2ncc(F)cc2[C@H]2COCCN2c2ccn3ncc1c3n2 — organ-to-brain weight ratio (Sprague-Dawley rat, female, kidneys; oral, 10 mg/kg/day, 4 weeks dosing, end of recovery): 103 ± 9.31%
COC(=O)[C@H]1[C@@H](c2ccc(Cl)cc2)C[C@@H]2CC[C@H]1N2CCCCCCCCCCCc1c2ccccc2cc2ccccc12 — pKa (fluorometric titration; 1 µM, 10% DMSO): 4.5
CC(C)Oc1c(NC(=O)c2ccc(NC(=O)[C@H](CC(N)=O)NC(=O)c3ccc(/N=N/c4ccccc4)cc3)cc2)ccc(C(=O)Nc2ccc(C(=O)O)cc2)c1O — thermal half-life (absorbance; DMSO; 50 °C, PSS to ground state relaxation): 1.8 h
N=C(N)NCCC[C@@H](NC(=O)[C@H](N)Cc1c[nH]c2ccccc12)C(=O)N[C@H](CCCCN)C(=O)N[C@H](Cc1c[nH]c2ccccc12)C(=O)N[C@H](CCCNC(=N)N)C(=O)N[C@H](CCCCN)C(=O)N[C@H](Cc1c[nH]c2ccccc12)C(=O)N[C@H](CCCNC(=N)N)C(=O)N[C@H](CCCCN)C(=O)N[C@H](Cc1c[nH]c2ccccc12)C(=O)N[C@H](CCCNC(=N)N)C(=O)N[C@H](CCCCN)C(N)=O — survival (mouse; intraperitoneal, 40 mg/kg single dose, day 4): 75%
CSCC[C@H](NC(=O)CNC(=O)[C@H](CCCCN)NC(=O)[C@H](CC(C)C)NC(=O)[C@@H]1CCCN1C(=O)[C@H](CO)NC(=O)[C@H](Cc1c[nH]cn1)NC(=O)[C@H](Cc1c[nH]c2ccccc12)NC(=O)[C@H](CCCNC(=N)N)NC(=O)[C@H](CC(C)C)NC(=O)[C@H](CCCNC(=N)N)NC(=O)[C@H](Cc1c[nH]c2ccccc12)NC(=O)[C@H](CS)NC(=O)CCCCCNC(=O)CN1CCN(CC(=O)O)CCN(CC(=O)O)CCN(CC(=O)O)CC1)C(=O)O [copper-64 labelled] — tumour-to-blood ratio (C57BL/6J mice, B16-F10 tumour; intravenous, 1.85 MBq, 18 h; relative to: tumour over blood): 3.7
CC(C)C[C@H](NC(=O)[C@H](Cc1ccc(O)cc1)NC(=O)[C@H](Cc1c[nH]cn1)NC(=O)[C@@H](NC(=O)[C@H](CC(C)C)NC(=O)[C@H](C)NC(=O)[C@H](C)NC(=O)[C@H](CCCCN)NC(=O)CNC(=O)[C@@H](NC(=O)[C@H](Cc1c[nH]cn1)NC(=O)[C@H](CCCCN)NC(=O)CNC(=O)[C@@H](NC(=O)[C@H](Cc1c[nH]cn1)NC(=O)[C@H](C)NC(=O)[C@H](C)NC(=O)[C@H](CCCCN)NC(=O)[C@H](CCCCN)NC(=O)[C@H](Cc1ccccc1)NC(=O)[C@H](Cc1ccccc1)NC(=O)[C@H](CO)NC(=O)CNC(=O)[C@H](Cc1c[nH]c2ccccc12)NC(=O)CN)C(C)C)C(C)C)[C@@H](C)O)C(N)=O — chronic toxic concentration (zebrafish embryos 28 hpf, E3 medium; 24 h): 5 µM
COc1cnc2cccc(N3CCc4c(cc(Cn5ccnc5)cc4-c4cn(C)nc4C(F)(F)F)C3=O)c2c1 — body weight change (CD-1 mouse; intraperitoneal, 100 mg/kg once daily, day 5, dose-escalation tolerability; relative to: day 1): 10.4%
CC(C)[C@@H]1NC(=O)CNC(=O)[C@H](CC(N)=O)NC(=O)[C@H](CCCNC(=N)N)NC(=O)[C@H](Cc2ccc(O)cc2)NC(=O)[C@H](C(C)C)NC(=O)[C@@H](NC(=O)[C@@H](NC(=O)[C@H](CC(N)=O)NC(=O)[C@H](Cc2c[nH]c3ccccc23)NC(=O)[C@H](C)NC(=O)[C@H](Cc2ccccc2)NC(=O)CNC(=O)[C@H](CCCCN)NC(=O)[C@H](Cc2ccccc2)NC(=O)[C@H](Cc2ccccc2)NC(=O)[C@H](CCCCN)NC(=O)OCC2c3ccccc3-c3ccccc32)C(C)C)CSSC[C@@H](C(=O)N[C@@H](Cc2c[nH]cn2)C(=O)N[C@@H](CCCNC(=N)N)C(=O)N[C@@H](CCCNC(=N)N)C(=O)N[C@@H](C)C(=O)N[C@@H](CC(N)=O)C(N)=O)NC(=O)[C@H](C(C)C)NC(=O)[C@H](CCCNC(=N)N)NC1=O — peptide remaining (HPLC; mouse liver homogenate 50 mg/mL; 8.00 h): 30.9% and 33.9% and 36.9%
CC[C@H](C)[C@H](NC(=O)[C@H](CCCCN)NC(=O)CNC(=O)[C@H](CC(C)C)NC(=O)[C@H](Cc1ccccc1)NC(=O)[C@H](CCCCN)NC(=O)[C@H](CO)NC(=O)[C@H](Cc1ccccc1)NC(=O)[C@H](Cc1c[nH]c2ccccc12)NC(=O)[C@H](CCC(N)=O)NC(=O)[C@@H](NC(=O)[C@H](Cc1ccccc1)NC(=O)CCCCCNC(=O)CN1CCN(CC(=O)O)CCN(CC(=O)O)CCN(CC(=O)O)CC1)C(C)C)C(=O)N[C@@H](CCC(=O)O)C(=O)N1CCC[C@H]1C(=O)N[C@@H](CC(=O)O)C(=O)N[C@H](C(=O)N[C@@H](CO)C(=O)N[C@@H](CCC(N)=O)C(=O)N[C@H](C(=O)N[C@@H](CCC(N)=O)C(=O)N[C@@H](CC(=O)O)C(=O)N1CCC[C@H]1C(=O)N[C@@H](CC(N)=O)C(=O)N[C@@H](CC(=O)O)C(=O)N[C@@H](CCC(N)=O)C(=O)N[C@@H](Cc1ccc(O)cc1)C(=O)N[C@@H](CCC(=O)O)C(=O)N1CCC[C@H]1C(=O)N[C@@H](Cc1ccccc1)C(=O)O)C(C)C)C(C)C [copper-64 labelled] — SUVmean (dynamic PET; mouse, CT26 tumour, untreated, tumour; intravenous, 100 µCi/mouse, 1740 s): 1.25 SUV
CC(CCC(=O)NCC(=O)O)C1CCC2C3CCC4CC(OC5OC(C(=O)O)C(O)C(O)C5O)CCC4(C)C3CC(O)C12C (centres unmarked) — plasma concentration (human women; dose not given, SLCO1B1 *14/*14): 9.13 ng/mL
